# Published values pooled from the literature.
# Lines come from different studies, so protocols differ.
Compound,target or system,test,test system,setting,how to read,quantity,result
CC(C)[C@]12O[C@H]1[C@@H]1O[C@]13[C@]1(O[C@H]1C[C@H]1c4c(C(=O)c5ccccc5)oc(OC(=O)c5ccccc5)c4CC[C@@]13C)[C@@H]2O,AML patient cells,"viable cell count, flow cytometry",,24 h,,EC50,36.2 nM
c1ccc(CN2CCNCCN(Cc3ccccc3)CCNCC2)cc1,Leishmania donovani,parasite growth,THP-1 macrophages,intracellular amastigotes,,IC90,2800 nM
O=C(O)CC[C@H](NC(=O)N[C@@H](CCCCNC(=O)[C@H](Cc1ccc2ccccc2c1)NC(=O)[C@H]1CC[C@H](CNC(=O)CNC(=O)CNC(=O)CNC(=O)CN2CCN(CC(=O)O)CCN(C(CCC(=O)NCCC[P+](c3ccccc3)(c3ccccc3)c3ccccc3)C(=O)O)CCN(CC(=O)O)CC2)CC1)C(=O)O)C(=O)O (some centres unmarked) [terbium-161 labelled],PC-3 PIP,,,concentration not given,,γ-H2AX foci per nucleus,39
CCCCCc1cc(O)c2c(c1)OC(C)(C)C1CCC(C)=CC21 (centres unmarked),,,"rabbit, α-chymotrypsin-induced glaucoma","topical, 50 µL of 0.5% w/v, 30 min",,IOP relative to baseline,66%
CC(C)C(Cl)C(NC(=O)C(O)Cc1ccccc1)C(=O)N1C(C(=O)NCCC2=CCN(C(=N)N)C2)CC2CCC(OC3OCC(OS(=O)(=O)O)C(O)C3O)CC21 (centres unmarked),trypsin,enzyme activity,,"20 min, pH 8, 37 °C",,IC50,112 nM
C[C@@](O)(C(F)F)[C@H](NC(=O)c1ccc(C#CC#CC2CC2)cc1)C(=O)NO,Stenotrophomonas maltophilia,agar dilution,clinical isolates,,,MIC90,1 µg/mL
CC(=O)[O-].F[P-](F)(F)(F)(F)F.[Co+2].c1ccc(CN2CCCNCCN(Cc3ccccc3)CCCNCC2)cc1,Leishmania donovani,"parasite growth, resazurin",,"72 h, amastigote",,IC50,> 15000 nM
CC(C)C[C@H]1NC(=O)[C@H](NC(=O)CN)CSSC[C@H]2NC(=O)[C@H]3CSSC[C@H](C(=O)N[C@H](CC(N)=O)C(=O)N[C@H](Cc4ccccc4)C(=O)N[C@H](CO)C(=O)N[C@H](Cc4ccccc4)C(N)=O)NC(=O)[C@@H](CC(C)C)NC(=O)[C@@H](CCCCN)NC(=O)[C@@H](Cc4ccccc4)NC(=O)[C@@H](CC(C)C)NC(=O)[C@@H](CCCCN)NC(=O)[C@@H](CO)NC(=O)[C@@H](CSSC[C@@H](NC(=O)[C@@H](CCCCN)NC(=O)[C@@H](Cc4c[nH]c5ccccc45)NC(=O)[C@@H](Cc4c[nH]c5ccccc45)NC(=O)[C@@H](Cc4ccccc4)NC(=O)[C@@H](CCC(=O)O)NC1=O)C(=O)N[C@H](CC(N)=O)C(=O)N1CCC[C@@H]1C(=O)N[C@H](CC(N)=O)C(=O)N[C@H](CC(=O)O)C(=O)N[C@H](CC(=O)O)C(=O)N[C@H](CCCCN)C(=O)N3)NC(=O)[C@@H](CCCCN)NC(=O)[C@@H](CC(C)C)NC(=O)[C@@H](CCCCN)NC(=O)[C@H]1CCCN1C(=O)[C@@H](CCCNC(=N)N)NC2=O,,,D2.mdx mouse,"subcutaneous, 1 mg/kg, six weeks, 20 eccentric contractions",,protection from contraction injury,~30%
CC(C)C1=C(OC(=O)Cc2ccccc2)C(=O)C2=C(C=C[C@H]3C(C)(C)CCC[C@]23C)C1=O,,"oxygen radical absorbance capacity, fluorometric",,,,ORAC,0.55 Trolox equivalents
CC(=O)[O-].F[P-](F)(F)(F)(F)F.[Ni+2].c1ccc(CN2CCN3CCN(CC2)CCN(Cc2ccccc2)CC3)cc1,Leishmania donovani,"parasite growth, resazurin",,"72 h, amastigote",,IC90,> 20000 nM
COc1ccc2cc1Oc1ccc(cc1)C[C@H]1c3cc(c(OC)cc3CC[N@+]1(C)Cc1ccc3ccc4cccc5ccc1c3c45)Oc1c(OC)c(OC)cc3c1[C@H](C2)[N@@+](C)(Cc1ccc2ccc4cccc5ccc1c2c45)CC3,mixed-sequence 12-bp dsDNA,"DNA binding, ethidium bromide displacement","phosphate buffer, 10% DMSO","pH 7.2, 25 °C, dsDNA 10 µM, 10 mM NaCl, with: ethidium bromide 5 µM",,Stern-Volmer constant,48400 M⁻¹
CC[C@H](C)[C@H](NC(=O)[C@@H](NC(=O)[C@H](CC(=O)O)NC(C)=O)[C@@H](C)O)C(=O)N[C@@H](CCCNC(=N)N)C(=O)N[C@@H](CC(C)C)C(=O)N[C@@H](CC(C)C)C(=O)N[C@@H](Cc1ccccc1)C(=O)N[C@@H](CCC(N)=O)C(=O)N[C@@H](CC(C)C)C(=O)N[C@@H](CCSC)C(=O)N[C@@H](CCCNC(=N)N)C(=O)N1CCC[C@H]1C(=O)N1CCC[C@H]1C(=O)N[C@@H](CC(N)=O)C(=O)N[C@@H](CCSC)C(=O)N[C@H](C(=O)N1CCC[C@H]1C(=O)N[C@@H](C)C(=O)N[C@H](C(=O)N[C@@H](CC(N)=O)C(=O)N[C@@H](C)C(N)=O)C(C)C)[C@@H](C)O,,item: HA-51 tetramer,"antigen-experienced tetramer+ CD4 T cells, healthy adults, HLA-DRB1*0101",dose not given,,α4β7− CCR9− cells,5.88%
O=C(O)CC[C@H](NC(=O)N[C@@H](CCCCNC(=O)[C@H](Cc1ccc2ccccc2c1)NC(=O)[C@H]1CC[C@H](CNC(=O)CN2CCN(CC(=O)O)CCN(C(CCC(=O)NCCC[P+](c3ccccc3)(c3ccccc3)c3ccccc3)C(=O)O)CCN(CC(=O)O)CC2)CC1)C(=O)O)C(=O)O (some centres unmarked) [terbium-161 labelled],LNCaP (PSMA+),,,concentration not given,relative to: cell-associated,internalized activity,56.3%
CC(C)CC(C(=O)N1CC2(CC1C#N)C(=O)Nc1ccccc12)N(C)C(=O)c1cc2c(F)cc(F)c(F)c2[nH]1 (centres unmarked),human cysteine proteases,inhibitor,,,,IC50,≥ 2000 nM
Nc1ccc(/C=C/C(=O)N2CCc3c(oc4c(-c5ccc(F)cc5)cc(-c5ccc(C(=O)N6CCC(F)(F)CC6)cn5)cc34)C2)cn1,MIA PaCa-2,"western blot, item: cyclin D1",,"0.05 to 5 µM, 72 h",,protein level,decreased
COc1ccc2cc1Oc1ccc(cc1)C[C@H]1c3cc(c(OC)cc3CC[N@+]1(C)Cc1ccc3c(c1)C(=O)c1ccccc1C3=O)Oc1c(OC)c(OC)cc3c1[C@H](C2)[N@@+](C)(Cc1ccc2c(c1)C(=O)c1ccccc1C2=O)CC3,mixed-sequence 12-bp dsDNA,"DNA binding, ethidium bromide displacement","phosphate buffer, 10% DMSO","pH 7.2, 25 °C, dsDNA 10 µM, 10 mM NaCl, with: ethidium bromide 5 µM",,Stern-Volmer constant,133000 M⁻¹
CC[C@H]1CN2CCc3c([nH]c4cccc(OC)c34)[C@@H]2C[C@@H]1/C(=C\OC)C(=O)OC,rabbit anti-mitragynine polyclonal antibody,"antigen binding, competitor, competitive indirect ELISA",,0.001 to 50.0 µg/mL,,IC50,1.47 µg/mL
CC/C=C\C/C=C\C/C=C\C/C=C\C/C=C\C/C=C\CCC(=O)Nc1ccn(C2OC(CO)C(O)C2(F)F)c(=O)n1 (centres unmarked),UO-31,NCI60 screen,,,,CC50,37900 nM
CC(C)[C@H](NC(=O)CNC(=O)[C@H](CCCNC(=N)N)NC(=O)[C@H](Cc1c[nH]cn1)NC(=O)[C@H](Cc1c[nH]c2ccccc12)NC(=O)[C@H](Cc1ccccc1)NC(=O)[C@H](Cc1c[nH]cn1)NC(=O)[C@H](Cc1ccc(O)cc1)NC(=O)[C@@H](N)Cc1ccc(O)cc1)C(=O)N[C@H](C(=O)N[C@@H](CCCCN)C(=O)N[C@@H](CCCNC(=N)N)C(=O)O)[C@@H](C)O,"LPS, Escherichia coli 0111:B4",isothermal titration calorimetry,,"pH 7, 37 °C",,Kd,19000 nM
CC[C@H]1OC(=O)[C@H](C(C)C)NC(=O)[C@H](C)OC(=O)[C@@H](C(C)C)NC(=O)[C@@H](C(C)C)OC(=O)[C@H](C(C)C)NC(=O)[C@H](C)OC(=O)[C@@H](C(C)C)NC(=O)[C@@H](C(C)C)OC(=O)[C@H](C(C)C)NC(=O)[C@H](C)OC(=O)[C@@H](C(C)C)NC1=O,U-87 MG,"Western blot, item: ACO2",,"5 and 10 µM, 48 h",,protein level,no effect

# For quick reference, copied from above:
Compound,target or system,test,test system,setting,how to read,quantity,result
CC(=O)[O-].F[P-](F)(F)(F)(F)F.[Ni+2].c1ccc(CN2CCN3CCN(CC2)CCN(Cc2ccccc2)CC3)cc1,Leishmania donovani,"parasite growth, resazurin",,"72 h, amastigote",,IC90,> 20000 nM
